# Published values pooled from the literature.
# Parts stem from different laboratories: compare values within a part only. Substitutions count along the parent as printed.

# Block 1
# Target: RING finger protein unkempt homolog, zinc fingers 1-6, GST-SBP tag (UNK, Homo sapiens, UniProt Q9C0B0, residues 30-357)
# Technique: RNA Bind-n-Seq
# Molecule type: RNA
# Matrix: in vitro
# Tested at: not given
# Setting: RNA with constant flanks, human and mouse sites, ends assumed
# Relative to: input RNA pool
# Reading: higher = stronger binding
# Shared flanks, not repeated: GGGAGUUCUACAGUCCGACGAUC … CAACAGAGGAUUGAGCAUCA
# Residues (chain): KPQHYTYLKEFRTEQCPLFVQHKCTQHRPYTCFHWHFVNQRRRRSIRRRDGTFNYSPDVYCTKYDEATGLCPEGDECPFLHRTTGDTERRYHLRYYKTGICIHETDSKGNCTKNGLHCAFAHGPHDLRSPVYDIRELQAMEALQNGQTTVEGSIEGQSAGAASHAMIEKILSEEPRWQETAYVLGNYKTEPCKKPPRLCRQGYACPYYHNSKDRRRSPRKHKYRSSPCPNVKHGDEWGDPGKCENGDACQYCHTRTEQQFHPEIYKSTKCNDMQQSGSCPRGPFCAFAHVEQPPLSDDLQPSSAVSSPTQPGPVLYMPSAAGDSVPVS
Oligonucleotide,bound/input enrichment [ratio]
GCUUUCCCUGCCUUCCUGGGCACUGAGGCCUCCAGCUCAGGCAAUGGCUCCUGGCUGGAGCUGAUGCCCCUGACUGCUGUGAGCGUGCACCUGCUGACAGGUAAUGGGACAGAGGUGCCG,0.0944
GGCGGCAGCCCUGGUUAGCUGAUCACACCCAGGUGUCAUGAUGCCAACAUCCUAGGUUCCUAGUUUUUGGUUUUGGUAACUUAGUGCGUAGCUCCAGGUGCCGCAUCUACUCGCCAAUCU,0.222
AUGCUCAUCAGUGGCUAUGCACUCAACUGUGUGGUGGGAUCCCAGGGCAUGCCCAAGAGAAUCGUAAAUGCAAAAAUUGCUUGCCUUGACUUCAGCCUGCAAAAAACAAAAAUGAAGCUU,0.104
UCCAGCUCUUGAUGUUUUUAAACUUUUUUUUAGAAGAAAAAUUAAGUACAGAAAAGCCCAGAUUUAAAUACAUUUAAUAUGUCAUUUUAAAAAUGAUUUUAAUAAUUCAUUUCUUAAAAC,0.387
AUGAGCAUAAAUGAAGCUAAGGAAUAUGAAGUGUACGACAGUUCGCCUCAUCUUGAGUGCCUAGCAGAAUUUCAGGAGAAAGUCAGGAAGACCAACAAUUUUUCAGCUUUUCUUGCCAAU,0.0808
GUACAAGAAGAGCUUCUGAAGGGCCUGGAUAACAAGAACCCCAAGAUCAUAGUGGCCUGUAUAGAAACACUGAGGAAAGCCUUAAGUGAAUUUGGUUCCAAAAUCAUCUCACUUAAGCCA,0.613
GACAUUUUGGGUGUUAAGAAGGAAAUGAUCCGGCUAGAUGAAGUUCCCAAUCUGAGUUCCUUAGUAUCCAAUUUCGAUCAGCAGCAGCUUGCUAACUUCUGCAGGAUCCUGGCUGUCACC,0.466
CUCCUGGCCCCCAUUAGAUUGCUUUCUUUCUCCAGCGCAGGGUCGUGAUGUGUCCGUCUAAAUAGCGUUUUGCAUUAUUUCUAGAUGAGUGCAACUGUCAAAGCAAUAUGGCUUCAGCGG,1.39
AAGCCAAAAAUCCAGAUUUGUAUAUGAAAUCUUACCAUUUUAAAAGAUUGGCAGCUAAUUAUUUUUUUAAAAAGCUGUGCAGUGUGAUGUGUCCCAAACGGACUGGCUCAUGGGUGGCCA,0.412
GUGGUAGCUUUCCAGAAUUUAUUCAACAAACCAACUGGAAUGAAUUCUUCAGUAGUGCCCUUGUCUCAGGGCCAAGUAAUUGUAAGCAUCCCCACAGGUUCCACAGUGUCAGCCGGAGGA,0.474
GUUGACAACUCACAGGUGAUUAAGAAAGAGGAUUUAUGCAUUUCUCCAGGCAAGCUUGCUUGGGUUCUAUACUGUGACCUCAUUUGUCUAGACUACGAUGGGAACAUUUUGGAUGCCUGC,0.301

# Block 2
# Target: Interferon regulatory factor 5, full length, phosphomimetic (IRF5, Homo sapiens, UniProt Q13568-2, residues 1-514, K96S/S451D/S453D/S456D/S462D)
# Technique: protein-binding microarray
# Molecule type: double-stranded DNA, one strand shown
# Matrix: in vitro
# Tested at: 250 nM
# Setting: 60-bp whole probe
# With: salmon DNA 0.4 mg/ml
# Relative to: random background probes
# Reading: higher = stronger binding
# Shared flanks, not repeated: GCCTAGCAC … GTCTTGATTCGCTTGACGCTGCTG
Oligonucleotide,log fluorescence
TCATCTCACGCATCTGAAACTGTGCTA,0.398 z-score
AGTGTGGTCTGTTTCTGATAGTGCTAG,0.633 z-score
GACGAAATCAGTATCGAGACGTGCTAG,3.57 z-score
TTAGGTATCGCCTTTCGGTTAGTGCTA,6.88 z-score
TTACAACTGAGTTTCGATTAGTGCTAG,9.6 z-score
GACCGTCTCGGACTGGGGACGTGCTAG,-0.45 z-score
TTAGATTTCAGACTGGACTAGTGCTAG,0.236 z-score
TCATTTTTACCTGTGGTACTGTGCTAG,0.611 z-score
CTGCCTTCAGAGCTGTCTGTGTGCTAG,-0.492 z-score
GACGGTCTCGGTATCGGGAAGTGCTAG,1.43 z-score
GACAGTTCCGGTTTCGGGACGTGCTAG,6.33 z-score
GTGCTTCACAGAGGCGGCTGGTGCTAG,-0.497 z-score
GATGATATCGGGTTTCGAGACGTGCTA,3.89 z-score
TCATGTATATCTTCAGCACTGTGCTAG,0.135 z-score
TGGTAATTCTTTGCTCATTTTGTGCTA,0.469 z-score
TTAGGTCTCCTTATCCATTAGTGCTAG,-0.223 z-score

# Block 3
# Target: Fragile X messenger ribonucleoprotein 1, C-terminal low-complexity region (Fmr1, Mus musculus, UniProt P35922)
# Technique: RNA Bind-n-Seq
# Molecule type: RNA
# Matrix: in vitro
# Tested at: 200 nM
# Setting: whole 134-nt RNA, ends assumed
# With: 150 mM LiCl
# Relative to: input library
# Reading: higher = stronger binding
# Library: 7-deaza-guanosine replaces G
# Shared flanks, not repeated: GGGAGUUCUACAGUCCGACGAUC … UGGAAUUCUCGGGUGUCAAGG
Oligonucleotide,log2 enrichment
CUCAAGUCCUGUGCUACACAUCGUAUGUACCGAAUCGGUGGAAAAAAAGGUGGAAAGUAUUAUGUUACGCCGUUCGGAUCUGCACUUCCA,0.39
UCUCCCAUCAAAGGACGUGCACAGCCUUAUGAUCCCAAUUUUUACGAUGAAACCUAUGAUUAUGGUGGUUUUACAAUGAUGUUUGAUGAC,0.928
UUUUACUUCUCCGCCAGGUGCUGUGCUCCAUCAUCGCCGGUACCUUGCACUAUCUCUACCUGGCCACCUUGACCUGGAUGCUGCUGGAGG,0.963
CCUGUGCUACACAUCGUAUGUACCGAAUCGGGGAAAGGGGUUUUUUUGGGGUUUUUGGGGAAAGUAUUAUGUUACGCCGUUCGGAUCUGC,-0.536
AAGUCCUGUGCUACACAUCGUAUGUACCGAAUCGGGUUUUGGUUUUGGGUUUUGGGGAAAGUAUUAUGUUACGCCGUUCGGAUCUGCACU,-1.04
UGAAUCCUUCCUUGAUGAUGAAGAGGUAUGUCAACAAGGGUAAUAAUUUGUUUUCUUCUGAUUACUCUCAUAUUUUUAUUAUCUUUUAUU,-1.88
UGUGCUACACAUCGUAUGUACCGAAUCGGGGCCCCCCCGGGCCCCCCCGGGCCCCCCCGGGGAAAGUAUUAUGUUACGCCGUUCGGAUCU,-0.79
UCCUGUGCUACACAUCGUAUGUACCGAAUCGGGUUUUUUGGGUUUUUUGGUUUUUUGGGGAAAGUAUUAUGUUACGCCGUUCGGAUCUGC,-1.37
UGGGCCUGGUGGCAUGCGGGGAGGAAGAGGUGGCCUCAUGGAUCGUGGUGGUCCCGGUGGAAUGUUCAGAGGUGGCCGUGGUGGAGACAG,0.618
AAGUCCUGUGCUACACAUCGUAUGUACCGAAUCGGGGUUUUUGGGGAGGGGUGGGGAAAGUAUUAUGUUACGCCGUUCGGAUCUGCACUU,-1.32
GUCCUGUGCUACACAUCGUAUGUACCGAAUCGGGGUUUUUGGUUUUUGGGGUUUUUGGAAAGUAUUAUGUUACGCCGUUCGGAUCUGCAC,-1.1

# Block 4
# Target: CCNA1, cyclin fold, Cln2 fusion (human)
# Technique: yeast growth competition, sequencing
# Matrix: yeast
# Setting: weak parent motif
# Relative to: not given
# Reading: higher = stronger binding
# Starting sequence: KIF20B docking peptide (human); KRAKRKLYTSEIS; partner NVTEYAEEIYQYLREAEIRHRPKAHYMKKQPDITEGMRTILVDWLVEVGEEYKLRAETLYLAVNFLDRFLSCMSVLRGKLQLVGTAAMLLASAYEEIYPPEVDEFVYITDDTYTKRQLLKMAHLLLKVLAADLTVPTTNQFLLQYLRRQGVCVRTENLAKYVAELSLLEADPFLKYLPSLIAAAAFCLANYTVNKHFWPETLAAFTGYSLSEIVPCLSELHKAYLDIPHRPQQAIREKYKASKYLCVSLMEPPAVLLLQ
Change,normalised enrichment score
KRAKRKLYTSAIS [E11A],0.735
KRAKRKLYTAEIS [S10A],0.0706
KRAARKLYTSEIS [K4A],0.583
KRAKRKLATSEIS [Y8A],-0.00183
KRAKRALYTSEIS [K6A],0.271
KRAKRKLYTSEAS [I12A],0.575

# Block 5
# Target: ABI1, truncated, D143A, DHFR fusion (Arabidopsis thaliana)
# Technique: DHFR PCA, deep sequencing
# Matrix: yeast
# Setting: methotrexate growth selection, single substitutions
# With: (+)-ABA 0 µM
# Relative to: wild-type fitted maximum
# Reading: higher = stronger binding
# Starting sequence: PYL1, truncated, DHFR fusion (Arabidopsis thaliana); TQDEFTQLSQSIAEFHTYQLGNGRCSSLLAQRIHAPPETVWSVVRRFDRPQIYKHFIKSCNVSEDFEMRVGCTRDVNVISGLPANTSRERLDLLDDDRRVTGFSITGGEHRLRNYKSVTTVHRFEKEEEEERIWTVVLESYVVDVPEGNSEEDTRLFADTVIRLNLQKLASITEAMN; partner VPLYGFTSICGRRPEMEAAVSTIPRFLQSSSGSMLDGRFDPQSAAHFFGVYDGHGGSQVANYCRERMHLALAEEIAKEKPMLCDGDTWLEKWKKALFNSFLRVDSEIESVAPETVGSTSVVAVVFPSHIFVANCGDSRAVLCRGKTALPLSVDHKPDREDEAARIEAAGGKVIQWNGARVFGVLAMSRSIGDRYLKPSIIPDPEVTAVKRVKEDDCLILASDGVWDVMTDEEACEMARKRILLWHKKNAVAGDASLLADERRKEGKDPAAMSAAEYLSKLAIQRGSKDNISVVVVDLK
Change,relative binding score [%]
E147F,8.05
A30H,6.64
L29E,1.77
V78D,-0.0577
I52A,31.1
H110Y,15.2
S59F,3.9
F47T,-4.36
D153Q,-0.71
T106W,-2.99
N85H,61.8
R32S,7.28
Y18C,-5
T39N,1.03
R99E,5.37
Q7R,14.3
E38Y,-3.01
T86Y,20
W134I,12
V136M,11.8
R155L,5.09
H122G,1.56
N61T,51.2
H16G,0.396
G107A,21.2
